# Results gathered from unrelated publications.
# kasA: 3-oxoacyl-[acyl-carrier-protein] synthase 1 (kasA, Mycobacterium tuberculosis, UniProt P9WQD9)
SMILES,tested on,test,test system,setting,scale,endpoint,value
O=C(Nc1cccnn1)N1CCC(=Cc2cccc(Oc3ccc(C(F)(F)F)cn3)c2)CC1,"Calumenin (Calu, Rattus norvegicus, UniProt O35783)",competitive ABPP with azido-FP probe,rat brain soluble fraction,"0.01 µM, unit not given",relative to: DMSO,probe labelling,-13.3
CCc1nc2ccc(Cl)cn2c1C(=O)N1CC(O)C(C)(C)C1 (centres unmarked),kasA,"thermal stabilization, nanoDSF",,100 µM,,ΔTm,-0.12 °C
COc1ccc(N2C(=O)N(c3c(C)cccc3Cl)Cc3cnc(Nc4ccc(C5CCN(C)CC5)cc4OC)nc32)nc1,"ULK3 (Homo sapiens, UniProt Q6PHR2)",kinase activity,,0.5 µM,,inhibition,3.65%
CC(NC(C)(C)C)C(=O)c1cccc(Cl)c1 (centres unmarked),"Voltage-dependent P/Q-type calcium channel subunit alpha-1A (Homo sapiens, UniProt O00555)","ion current, antagonist",HEK293,30 µM,,inhibition,57%
CN(C(=O)n1cnc(-c2ccc[n+]([O-])c2)c1)C1CCCCC1,"Adra1a (Rattus norvegicus, UniProt P43140)",radioligand binding,,"10 µM, together with: [3H]prazosin",,inhibition,4%
[H]/N=C(/N)N[C@H]1[C@H](O)[C@@H](O)[C@H](O[C@@H]2O[C@@H](C)[C@](O)(C=O)[C@H]2O[C@@H]2O[C@@H](CO)[C@H](O)[C@@H](O)[C@@H]2NC)[C@@H](N/C(N)=N\[H])[C@@H]1O,kasA,"thermal stabilization, nanoDSF",,100 µM,,ΔTm,-0.01 °C
O=C(Nc1cnccc1Cl)N1CCN(Cc2ccc3c(c2)OC(F)(F)O3)CC1,"GABBR1 (Homo sapiens, UniProt Q9UBS5)",radioligand binding,,"50 µM, together with: [3H]CGP-54626",,inhibition of binding,4%
CC[C@H](C)[C@H](NC(=O)CNC(=O)[C@@H](N)CCCCN)C(=O)N[C@@H](CC(C)C)C(=O)N[C@@H](CCCCN)C(=O)N[C@@H](CCCNC(=N)N)C(=O)N[C@@H](CCC(=O)O)C(=O)N[C@@H](CCCCN)C(=O)N[C@@H](CCCNC(=N)N)C(=O)N[C@@H](CC(C)C)C(=O)N[C@@H](CCCNC(=N)N)C(=O)N[C@@H](CCCNC(=N)N)C(=O)N[C@@H](CCCCN)C(=O)N[C@@H](CC(N)=O)C(=O)N[C@H](C(=O)N[C@@H](Cc1c[nH]cn1)C(=O)N[C@@H](Cc1c[nH]c2ccccc12)C(=O)N1CCC[C@H]1C(=O)N[C@@H](CCC(=O)O)C(=O)N[C@@H](CCC(=O)O)C(=O)NCC(=O)N[C@@H](CCCCN)C(=O)N[C@@H](CC(C)C)C(=O)N[C@@H](CCCNC(=N)N)C(=O)N[C@@H](CCC(=O)O)C(=O)N[C@@H](Cc1ccc(O)cc1)C(=O)N[C@@H](Cc1ccccc1)C(=O)N[C@@H](Cc1ccc(O)cc1)C(=O)N[C@@H](Cc1ccccc1)C(=O)N[C@@H](CCC(=O)O)C(=O)N[C@@H](CC(C)C)C(=O)N[C@@H](CC(=O)O)C(=O)N[C@@H](CCC(=O)O)C(=O)N[C@@H](C)C(=O)N[C@@H](CCC(=O)O)C(=O)N[C@@H](CCCNC(=N)N)C(=O)N[C@H](C(=O)N[C@@H](CC(N)=O)C(=O)N[C@H](C(=O)O)C(C)C)C(C)C)C(C)C,HeLa and HEK-293T cells,"phosphatase bead binding, competitive inhibitor, PIB pulldown iBAQ LC-MS/MS, measured: PPP6C",,concentration not given,relative to: untreated control,log2 fold change,-0.11
CC[C@H](C)C(=O)O[C@H]1C[C@@H](C)C=C2C=C[C@H](C)[C@H](CC[C@@H]3C[C@@H](O)CC(=O)O3)[C@H]21,kasA,"thermal stabilization, nanoDSF",,100 µM,,ΔTm,-0.14 °C
O=C(c1ccc(Cl)cc1)N1CCN2C(=O)N(OC(=O)N3CCOc4ccccc43)C(=O)C2C1 (centres unmarked),"Acyl-coenzyme A thioesterase 2, mitochondrial (ACOT2, Homo sapiens, UniProt P49753)","enzyme activity, inhibitor, MS-based ABPP",SW-620 conditioned medium,"10 µM, 1 h, 37 °C","relative to: compound over DMSO, lower = stronger inhibition",median ratio,1.11
CN1CCN(c2cc(-c3ccncc3)c(-c3ccc4ccccc4c3)nn2)CC1,"GPR119 (Homo sapiens, UniProt Q8TDV5)","agonist, FLIPR",,12.5 µM,,activation,11.9%
COc1cc2c(Oc3ccc4[nH]c(C)cc4c3F)ccnc2cc1OCC1(N)CC1,,,paediatric refractory sarcoma patients,12 mg,,TBIL elevation incidence,9.1%
C[C@H]1CN(c2n[nH]c3nc(N[C@H]4CC[C@H](NS(=O)(=O)CCC(F)(F)F)CC4)ncc23)CCO1,"Tight junction protein 1 (TJP1, Homo sapiens, UniProt Q07157)","binding, Kinobeads competition, measured: TJP1",,,,Hill coefficient,1
[2H]c1c([2H])c([C@]2([2H])CCCN2C(=O)C(C)(C)Oc2ccc3cn[nH]c3c2)c([2H])c([2H])c1C([2H])([2H])[2H],"CHEK1 (Homo sapiens, UniProt O14757)",KINOMEscan,,1 µM,relative to: DMSO control,remaining binding,84%
CC[C@H](C)[C@H](NC(=O)CNC(=O)[C@@H](N)CCCCN)C(=O)N[C@@H](CC(C)C)C(=O)N[C@@H](CCCCN)C(=O)N[C@@H](CCCNC(=N)N)C(=O)N[C@@H](CCC(=O)O)C(=O)N[C@@H](CCCCN)C(=O)N[C@@H](CCCNC(=N)N)C(=O)N[C@@H](CC(C)C)C(=O)N[C@@H](CCCNC(=N)N)C(=O)N[C@@H](CCCNC(=N)N)C(=O)N[C@@H](CCCCN)C(=O)N[C@@H](CC(N)=O)C(=O)N[C@H](C(=O)N[C@@H](Cc1c[nH]cn1)C(=O)N[C@@H](Cc1c[nH]c2ccccc12)C(=O)N1CCC[C@H]1C(=O)N[C@@H](CCC(=O)O)C(=O)N[C@@H](CCC(=O)O)C(=O)NCC(=O)N[C@@H](CCCCN)C(=O)N[C@@H](CC(C)C)C(=O)N[C@@H](CCCNC(=N)N)C(=O)N[C@@H](CCC(=O)O)C(=O)N[C@@H](Cc1ccccc1)C(=O)N[C@@H](Cc1ccccc1)C(=O)N[C@@H](Cc1ccccc1)C(=O)N[C@@H](Cc1ccccc1)C(=O)N[C@@H](CCC(=O)O)C(=O)N[C@@H](CC(C)C)C(=O)N[C@@H](CC(=O)O)C(=O)N[C@@H](CCC(=O)O)C(=O)N[C@@H](C)C(=O)N[C@@H](CCC(=O)O)C(=O)N[C@@H](CCCNC(=N)N)C(=O)N[C@H](C(=O)N[C@@H](CC(N)=O)C(=O)N[C@H](C(=O)O)C(C)C)C(C)C)C(C)C,HeLa and HEK-293T cells,"phosphatase bead binding, competitive inhibitor, PIB pulldown iBAQ LC-MS/MS, measured: PPP6R1",,concentration not given,relative to: untreated control,log2 fold change,-0.23
COC(=O)Nc1nc2cc(C(=O)c3ccc(F)cc3)ccc2[nH]1,kasA,"thermal stabilization, nanoDSF",,100 µM,,ΔTm,-0.03 °C
Oc1ccc2c3c1O[C@H]1[C@@H](O)CC[C@@]4(O)[C@@H](C2)N(CC2CCC2)CC[C@]314,"LPAR4 (Homo sapiens, UniProt Q99677)","β-arrestin recruitment, TANGO luminescence, measured: GPR23",,concentration not given,relative to: basal luminescence,log2 fold change,0.274

# A few entries again:
SMILES,tested on,test,test system,setting,scale,endpoint,value
CC[C@H](C)[C@H](NC(=O)CNC(=O)[C@@H](N)CCCCN)C(=O)N[C@@H](CC(C)C)C(=O)N[C@@H](CCCCN)C(=O)N[C@@H](CCCNC(=N)N)C(=O)N[C@@H](CCC(=O)O)C(=O)N[C@@H](CCCCN)C(=O)N[C@@H](CCCNC(=N)N)C(=O)N[C@@H](CC(C)C)C(=O)N[C@@H](CCCNC(=N)N)C(=O)N[C@@H](CCCNC(=N)N)C(=O)N[C@@H](CCCCN)C(=O)N[C@@H](CC(N)=O)C(=O)N[C@H](C(=O)N[C@@H](Cc1c[nH]cn1)C(=O)N[C@@H](Cc1c[nH]c2ccccc12)C(=O)N1CCC[C@H]1C(=O)N[C@@H](CCC(=O)O)C(=O)N[C@@H](CCC(=O)O)C(=O)NCC(=O)N[C@@H](CCCCN)C(=O)N[C@@H](CC(C)C)C(=O)N[C@@H](CCCNC(=N)N)C(=O)N[C@@H](CCC(=O)O)C(=O)N[C@@H](Cc1ccccc1)C(=O)N[C@@H](Cc1ccccc1)C(=O)N[C@@H](Cc1ccccc1)C(=O)N[C@@H](Cc1ccccc1)C(=O)N[C@@H](CCC(=O)O)C(=O)N[C@@H](CC(C)C)C(=O)N[C@@H](CC(=O)O)C(=O)N[C@@H](CCC(=O)O)C(=O)N[C@@H](C)C(=O)N[C@@H](CCC(=O)O)C(=O)N[C@@H](CCCNC(=N)N)C(=O)N[C@H](C(=O)N[C@@H](CC(N)=O)C(=O)N[C@H](C(=O)O)C(C)C)C(C)C)C(C)C,HeLa and HEK-293T cells,"phosphatase bead binding, competitive inhibitor, PIB pulldown iBAQ LC-MS/MS, measured: PPP6R1",,concentration not given,relative to: untreated control,log2 fold change,-0.23
